Assay results gathered from unrelated publications.
Each numbered part is a random draw from the data of one study; scales do not carry over between parts.

Set 1 — method: RNA Bind-n-Seq; molecule type: RNA; medium: in vitro; tested at: 365 nM; baseline: no-protein control; reading: higher = stronger binding
Target: RNA binding protein fox-1 homolog 2, RRM domain, GST-SBP tag (RBFOX2, Homo sapiens, UniProt O43251-10, residues 100-194)
Notes: natural RNA segment, single round, ends assumed
Constant ends, left off below: GGGAGUUCUACAGUCCGACGAUC … UGGAAUUCUCGGGUGCCAA
Residues (chain): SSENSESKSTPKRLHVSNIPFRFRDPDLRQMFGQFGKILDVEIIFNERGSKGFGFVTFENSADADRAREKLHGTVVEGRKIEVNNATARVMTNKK
For `UUCUAAAUAUACAAGGAAUUCUUUAAAUAGAGAAAAAGGUUAAUCCUCACUGAAACACCAGGAUGCCCACUGGAUAUACUAAUCUGAACAUCUGUAGGUAGUUUGUCAUG`, “RBNS enrichment (R)” read 0.612.
Under “RBNS enrichment (R)”, `AAUGGGGCCAACAGUUCUUCCUGUUCGGUGCAGCGGGUGCUAGUAGGAUGCCCUAGUCCUUGAUGGGGCAGGGUAGGACCUCUGGGGCAGAUGGCCUCCCUGCUCUUCUG` is recorded as 0.683.
For `UGUCCCUUCUCCCCAGUCAGUAUUACCCUUCGCGCCCAUAUUAUUUAGGAGGGCUUUAGGGGCUCCCUGGUUGAGUAUCACCCUGCCCCUUCCCCUCUCUUCCUCCCCUC`, “RBNS enrichment (R)” read 0.581.
`CCUGGGGACAUGUGGCUGCUCUAUUGUCUUACUGCGUCCCACAAUAUCUGAAUGUCUCAAUCCAAAACUUGAAGCUCUUUAGACCAAGAACUAGGGAGAGGAAAAAGGAG` — result for “RBNS enrichment (R)”: 0.284.
For `AGGACACACUGGGUCACUGGCAUGGCCCAACAGCACAGCAAGAGGAGAGCUUUGUGCCUAUACCCAGUGUGUGGCUUUCCUCCAACCCCUUCCCAGACUUGUGAUCCAUU`, “RBNS enrichment (R)” read 0.643.
`CCAAGUGACUCAAGAUUUGGCAGCCCCAGAGAUGCCAACUGCAGCAUGCCCACCUGUAUUCCCUGUCCCCUUCCUUCAUGAAGGCAUCUCCAGGCAAGGAAAACUGAAGU`: “RBNS enrichment (R)” 6.77.
`CUUUGGUUUGCUUUCUUCAGGCUCUAGGGCUGUGCUAUCCAAUACAGUAACCACAUGCGGCUGUUUAAAGUUAAGCCAAUUAAAAUCACAUAAGAUUAAAAAUUCCUUCC`: “RBNS enrichment (R)” 0.46.
Under “RBNS enrichment (R)”, `UCUCAGAGAAUCUCUGUGGAACUGCCCGUUCCAAUAUAAUAAUCUCCUCCUUUACAAGAGCUUUCCUCUCCUCUCUCUUGCUCUCAGAGACCUAUAAAUCCAACCAGUUA` is recorded as 1.04.

Set 2 — method: RNA Bind-n-Seq; molecule type: RNA; medium: in vitro; tested at: not given; baseline: input RNA pool; reading: higher = stronger binding
Target: RING finger protein unkempt homolog, zinc fingers 1-6, GST-SBP tag (UNK, Homo sapiens, UniProt Q9C0B0, residues 30-357)
Notes: RNA with constant flanks, human and mouse sites, ends assumed
Constant ends, left off below: GGGAGUUCUACAGUCCGACGAUC … CAACAGAGGAUUGAGCAUCA
Target sequence (chain): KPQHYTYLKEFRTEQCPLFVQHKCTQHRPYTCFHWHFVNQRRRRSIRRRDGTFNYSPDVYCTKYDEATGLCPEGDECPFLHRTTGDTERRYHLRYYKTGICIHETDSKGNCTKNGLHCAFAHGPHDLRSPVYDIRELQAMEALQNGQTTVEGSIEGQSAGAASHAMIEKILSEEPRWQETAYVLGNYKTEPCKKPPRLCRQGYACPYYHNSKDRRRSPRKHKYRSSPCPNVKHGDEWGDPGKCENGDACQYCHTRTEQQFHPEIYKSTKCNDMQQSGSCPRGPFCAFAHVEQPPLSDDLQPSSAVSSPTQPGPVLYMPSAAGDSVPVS
`GAUACAAAAAACAAGGAUGGAGUUCUGGUGGAUGAAUUUGGAUUGCCACAGAUCCCUGCUUCAUAGAUUUGCAUCAUUCAAGCAUAUCUUGUAAAACAAACACAUAUUAUGGGACUAGGA` gave a bound/input enrichment of 0.421 ratio.
The bound/input enrichment of `ACCACCCUCUCUGGGGUUCAAGAAGAGUCCGCUCUUUGCUAUCUUCUCCAGGUUGAUGAGUUUAGGUUUUUGUUGGACUGUGGCUGGGAUGAACACUUCUCUGUGGACAUUAUUGAUUCC` is reported as 0.0485 ratio.
For `GCUGAACCUGAUAUUAUUGAACAACUGGUGGAAUUUGCUUAUACUGCUAGAAUUUCCGUGAAUAGCAACAAUGUUCAGUCUUUGCUGGAUGCAGCAAACCAAUAUCAGAUUGAACCUGUG`, the bound/input enrichment was 0.438 ratio.
For `UACACAAGGAAAGUUGACUACUUCCCAUUCCUGGAUUUAGGAGAGGAACUCAGAAGGCCCUUAGGAUGAUCUGUUUGUAUGGGAAGAAGUUAGAGACAAUGGAUUUUAUAAUUCCAGAUU`, the bound/input enrichment was 1.95 ratio.
The bound/input enrichment of `GAUCAGAAGAGGAAAGAAAGAAAAGCUCAGAGGCAAGCAGCAAAGAAUCAAAUGUAUGAUGAUUACUACUAUUAUGGUCCACCUCAUAUGCCUCCCCCAACAAGAGGUCGAGGGCGUGGA` is reported as 0.397 ratio.
`ACCACACCUCCAAAUCAAGGAAGGCCAGAUUCUCCUGUCUAUGCUAACCUUCAAGAACUGAAAAUAUCCCAGUCUGCUCUUCCCCCACUUCCUGGGAGCCCGGCAAUUCAGAUUAAUGGA` has a bound/input enrichment of 0.269 ratio.
With `GUACCACCUGUCGCGGCGCGAGACCUCUGGUGAAAGAAAAGAUGUUGUCCCGGUUAAGAGUAGUUUCCACCACUUGUACUUUGGCAUGUCGACAUUUGCACAUAAAAGAAAAAGGCAAGC` the bound/input enrichment was 0.161 ratio.
`ACGAUCGGGGCCUACAUCAACACAACGCACUCACGGCUCACACACAUCAGUCCUCGGCACUAUAGUGAGUUUAUAGAGUUCCUCAGCAAAGCCCGAGAGACCUUCUUAAUGGCGCAUGAU` gave a bound/input enrichment of 0.335 ratio.

Set 3 — method: aptamer microarray, sandwich; molecule type: DNA with 2'F-ANA; medium: in vitro; tested at: 200 nM; added: Cy3 exosite-II aptamer, 400 nM; reading: higher = stronger binding; sequence: GGTTGGTGTGGTTGG
Target: Prothrombin, mature alpha-thrombin (F2, Homo sapiens, UniProt P00734)
Notes: whole 15-mer aptamer, many near background
`2'F-ANA at 2 5`: “mean fluorescence intensity” 73.5 a.u.
For `2'F-ANA at 2 4 8 9 10 12 14 15`, “mean fluorescence intensity” read 74.9 a.u.
Under “mean fluorescence intensity”, `2'F-ANA at 2 3 6 7 8 13 14 15` is recorded as 372 a.u.
For `2'F-ANA at 1 6 7 10`, “mean fluorescence intensity” read 61 a.u.
`2'F-ANA at 2 7 9 10 14 15`: “mean fluorescence intensity” 90.7 a.u.
Under “mean fluorescence intensity”, `2'F-ANA at 2 7 8 10 12 14` is recorded as 108 a.u.
Under “mean fluorescence intensity”, `2'F-ANA at 2 3 5 8 11 12 14` is recorded as 61 a.u.
`2'F-ANA at 1 2 4 8 10 13 14 15`: “mean fluorescence intensity” 47.2 a.u.
`2'F-ANA at 2 3 5 8 9 14 15`: “mean fluorescence intensity” 52.8 a.u.
For `2'F-ANA at 1 3 4 5 6 7 8 11 12 13 14`, “mean fluorescence intensity” read 48.4 a.u.
For `2'F-ANA at 2 7 10 11 12 14`, “mean fluorescence intensity” read 83.4 a.u.
For `2'F-ANA at 4 5 6 13 15`, “mean fluorescence intensity” read 49.1 a.u.
Under “mean fluorescence intensity”, `2'F-ANA at 1 5 6 9 12 13 14 15` is recorded as 46 a.u.
For `2'F-ANA at 2 3 4 6 7 9 10 11 13 15`, “mean fluorescence intensity” read 208 a.u.
For `2'F-ANA at 2 3 4 5 8 9 11 14 15`, “mean fluorescence intensity” read 49.9 a.u.
Under “mean fluorescence intensity”, `2'F-ANA at 1 3 4 5 7 11 12` is recorded as 107 a.u.
`2'F-ANA at 1 5 6 8 9 10 14` — result for “mean fluorescence intensity”: 47.9 a.u.
For `2'F-ANA at 4 5 6 7 8 9 14 15`, “mean fluorescence intensity” read 42.3 a.u.
`2'F-ANA at 4 5 6 7 8 10 12 14`: “mean fluorescence intensity” 47.3 a.u.
Under “mean fluorescence intensity”, `2'F-ANA at 1 2 4 6 7 9 10 12 13 14 15` is recorded as 45.6 a.u.
`2'F-ANA at 2 4 7 8 9 11 13`: “mean fluorescence intensity” 226 a.u.
`2'F-ANA at 1 2 3 4 6 8 9`: “mean fluorescence intensity” 215 a.u.
`2'F-ANA at 3 5 7 13 14`: “mean fluorescence intensity” 56 a.u.
`2'F-ANA at 2 3 4 5 8 9 10 11 14` — result for “mean fluorescence intensity”: 53.7 a.u.
`2'F-ANA at 2 3 5 6 8 9 10 11 12` — result for “mean fluorescence intensity”: 58.7 a.u.

Set 4 — method: RNA Bind-n-Seq; molecule type: RNA; medium: in vitro; tested at: 1 µM; notes: whole 134-nt RNA, ends assumed; added: 150 mM KCl; baseline: input library; reading: higher = stronger binding
Target: Ras GTPase-activating protein-binding protein 1, RRM domain (G3BP1, Homo sapiens, UniProt Q13283)
Chain of UniProt Q13283 (whole entry, looked up): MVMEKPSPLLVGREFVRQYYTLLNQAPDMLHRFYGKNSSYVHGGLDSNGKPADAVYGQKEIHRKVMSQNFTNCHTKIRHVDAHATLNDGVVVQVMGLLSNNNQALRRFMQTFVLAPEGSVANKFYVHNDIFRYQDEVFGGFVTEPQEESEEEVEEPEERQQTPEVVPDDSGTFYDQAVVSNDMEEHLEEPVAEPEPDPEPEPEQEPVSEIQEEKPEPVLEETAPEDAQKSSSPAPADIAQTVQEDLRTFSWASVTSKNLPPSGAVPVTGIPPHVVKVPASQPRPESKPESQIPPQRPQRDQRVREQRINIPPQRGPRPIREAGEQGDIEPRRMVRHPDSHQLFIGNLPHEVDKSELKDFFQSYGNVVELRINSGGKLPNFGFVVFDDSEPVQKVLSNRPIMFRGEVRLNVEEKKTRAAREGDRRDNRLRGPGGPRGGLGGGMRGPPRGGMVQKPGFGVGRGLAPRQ
Constant ends, left off below: GGGAGUUCUACAGUCCGACGAUC … UGGAAUUCUCGGGUGUCAAGG
For `AGUCCUGUGCUACACAUCGUAUGUACCGAAUCGGGGAGGGGUUUGGGGUUUUUGGGGAAAGUAUUAUGUUACGCCGUUCGGAUCUGCACU`, the log2 enrichment was 1.15.
`UAACUUUAGAGGAGGAUCUGAUGGAUAUGGCAGCGGACGUGGAUUUGGGGAUGGCUAUAAUGGGUAUGGAGGAGGACCUGGAGGUGGCAA` has a log2 enrichment of -0.899.
With `CACAGACAACACGCACCCACACAGACACAGAGGGAAGGGGUUGGGAUGGGGACAGGGUGCACAGCAGGGCGGGGUAGGACCACAGCCCCU` the log2 enrichment was -0.384.
`GCAGGAAGUAAAAACAAGUGGAAAUGCUUCGGAUAGUGGCAGGGGUGGGGGUUGCUAAGGAAAGGGUGGGAUGGGAGUGGGUAAAGAGUU` has a log2 enrichment of 1.06.
The log2 enrichment of `GUCCUGUGCUACACAUCGUAUGUACCGAAUCGGGGAAAAGGGGAAAAGGGGAAAAGGGGAAAGUAUUAUGUUACGCCGUUCGGAUCUGCA` is reported as 1.38.
`AAGUCCUGUGCUACACAUCGUAUGUACCGAAUCGGAAAAAGGAAAAAAAGGUUUGGAAAGUAUUAUGUUACGCCGUUCGGAUCUGCACUU` has a log2 enrichment of -0.195.
For `CCUCAAGUCCUGUGCUACACAUCGUAUGUACCGAAUCGGUGGGUGGGGUGGGAAAGUAUUAUGUUACGCCGUUCGGAUCUGCACUUCCAG`, the log2 enrichment was 0.204.
`UCCUGUGCUACACAUCGUAUGUACCGAAUCGGGAAAAAAGGGGAAAAAAGGGAAAAAAGGAAAGUAUUAUGUUACGCCGUUCGGAUCUGC` has a log2 enrichment of 0.00164.
`AAGUCCUGUGCUACACAUCGUAUGUACCGAAUCGGGGUGGGGUUUGGGGAAAGGGGAAAGUAUUAUGUUACGCCGUUCGGAUCUGCACUU` gave a log2 enrichment of 1.35.

A few entries again (set 1):
`CCUGGGGACAUGUGGCUGCUCUAUUGUCUUACUGCGUCCCACAAUAUCUGAAUGUCUCAAUCCAAAACUUGAAGCUCUUUAGACCAAGAACUAGGGAGAGGAAAAAGGAG` — result for “RBNS enrichment (R)”: 0.284.
Under “RBNS enrichment (R)”, `UCUCAGAGAAUCUCUGUGGAACUGCCCGUUCCAAUAUAAUAAUCUCCUCCUUUACAAGAGCUUUCCUCUCCUCUCUCUUGCUCUCAGAGACCUAUAAAUCCAACCAGUUA` is recorded as 1.04.
`CUUUGGUUUGCUUUCUUCAGGCUCUAGGGCUGUGCUAUCCAAUACAGUAACCACAUGCGGCUGUUUAAAGUUAAGCCAAUUAAAAUCACAUAAGAUUAAAAAUUCCUUCC`: “RBNS enrichment (R)” 0.46.
For `UGUCCCUUCUCCCCAGUCAGUAUUACCCUUCGCGCCCAUAUUAUUUAGGAGGGCUUUAGGGGCUCCCUGGUUGAGUAUCACCCUGCCCCUUCCCCUCUCUUCCUCCCCUC`, “RBNS enrichment (R)” read 0.581.
For `UUCUAAAUAUACAAGGAAUUCUUUAAAUAGAGAAAAAGGUUAAUCCUCACUGAAACACCAGGAUGCCCACUGGAUAUACUAAUCUGAACAUCUGUAGGUAGUUUGUCAUG`, “RBNS enrichment (R)” read 0.612.
